Measurements collected from several papers.
Each numbered part is a random draw from the data of one study; scales do not carry over between parts. Positions count from the first letter of the parent shown.

Series 1
Target: HLA class I histocompatibility antigen, A alpha chain, allele A*25:01 (Homo sapiens, UniProt P04439)
Read-out: peptide-MHC binding
Molecule type: peptide
Concentration: concentration not given
Quantity: binding
VSDFRKEFY: inactive
YYLIKYLHV: inactive
YSDNEMLTH: inactive
EVRKAIEFV: inactive
STNTLPTEY: inactive
FPASHMATY: active
RTLGVFRYK: inactive
VVDALRNIY: inactive

Series 2
Target: UBE2W UBC core domain (UniProt Q96B02)
Method: yeast two-hybrid
Matrix: yeast
Notes: mostly zero background
Baseline: not given
Reading: higher = stronger interaction
Quantity: lacZ reporter activity
B1: RNF6 RING domain (UniProt Q9Y252); chain NSIDSELGKICSVCISDYVTGNKLRQLPCMHEFHIHCIDRWLSENCTCPICRQPVLGSNIAN
B2: RNF182 RING domain (UniProt Q8N6D2); chain AESQASDELECKICYNRYNLKQRKPKVLECCHRVCAKCLYKIIDFGDSPQGVIVCPFCRFETCLPDDEV
B3: RING1 RING domain (UniProt Q06587); chain SPRSLHSELMCPICLDMLKNTMTTKECLHRFCSDCIVTALRSGNKECPTCRKKLVSKRSLR
B4: VPS8 RING domain (UniProt Q8N3P4); chain TRGLNPKQDYCSICLQQYKRRQEMADEIIVFSCGHLYHSFCLQNKECTVEFEGQTRWTCYKCSSSNKVGKLSE
B5: NFX1 RING domain (UniProt Q12986); chain IEQLTTEKYECMVCCELVRVTAPVWSCQSCYHVFHLNCIKKWARSPASQADGQSGWRCPACQNVSAHVPNTY
B6: TRIM41 RING domain (UniProt Q8WV44); chain PVQTLQEEAVCAICLDYFTDPVSIGCGHNFCRVCVTQLWGGEDEEDRDELDREEEEEDGEEE
B7: MARCHF1 RING domain (UniProt Q8TCQ1); chain TAPRSQSRLSVCPSTQDICRICHCEGDEESPLITPCRCTGTLRFVHQSCLHQWIKSSDTRCCELCKYDFIMETKLKPLRKWE
Target sequence (chain): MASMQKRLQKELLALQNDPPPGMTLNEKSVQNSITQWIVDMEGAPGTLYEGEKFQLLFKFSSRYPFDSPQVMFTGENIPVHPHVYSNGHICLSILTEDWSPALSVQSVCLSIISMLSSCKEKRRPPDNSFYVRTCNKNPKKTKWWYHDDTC
B1 (RNF6 RING domain): 0
B2 (RNF182 RING domain): 0
B3 (RING1 RING domain): 0
B4 (VPS8 RING domain): 0
ASPKIFQKTKCSICNSALELPSVHFLCGHSFHQHCFESYSESDADCPTCLPENRKVMDMI (VPS11 RING domain (UniProt Q9H270)): 0
FAEQPSVKLCCQLCCSVFKDPVITTCGHTFCRRCALKSEKCPVDNVKLTVVVNNI (TRAF7 RING domain (UniProt Q6Q0C0)): 0
B5 (NFX1 RING domain): 0
B6 (TRIM41 RING domain): 0
B7 (MARCHF1 RING domain): 0
EIKEYKARLTCPCCNTRKKDAVLTKCFHVFCFECVRGRYEARQRKCPKCNAAFGAHDFHR (RNF40 RING domain (UniProt O75150)): 0

Series 3
Target: ATP-dependent RNA helicase DDX3X, helicase core (DDX3X, Homo sapiens, UniProt O00571, residues 132-607)
UniProt O00571, sequence (132-607, looked up): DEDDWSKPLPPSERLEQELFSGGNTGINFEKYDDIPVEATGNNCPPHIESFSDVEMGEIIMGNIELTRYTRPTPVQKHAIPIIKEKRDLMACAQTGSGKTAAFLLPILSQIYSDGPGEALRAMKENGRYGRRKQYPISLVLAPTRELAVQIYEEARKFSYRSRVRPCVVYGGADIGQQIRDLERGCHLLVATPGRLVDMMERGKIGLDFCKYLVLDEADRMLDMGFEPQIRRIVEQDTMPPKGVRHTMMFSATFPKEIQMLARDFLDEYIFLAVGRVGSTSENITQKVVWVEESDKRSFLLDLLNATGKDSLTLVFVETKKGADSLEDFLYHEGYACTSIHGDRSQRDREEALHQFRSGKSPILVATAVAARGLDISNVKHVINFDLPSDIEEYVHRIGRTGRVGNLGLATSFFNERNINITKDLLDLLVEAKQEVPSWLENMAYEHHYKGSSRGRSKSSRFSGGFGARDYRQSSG
Method: RNA Bind-n-Seq
Molecule type: RNA
Matrix: in vitro
Concentration: 90 pmol
Notes: 4-mer, random 30-nt RNA, single round
Together with: 3 µM DMDA-PatA, 2 mM ADP, 2 mM phosphate
Baseline: input library
Reading: higher = stronger binding
Quantity: 4-mer enrichment
ACUA: 0.847 fold
GAUA: 0.885 fold
GCAG: 0.969 fold
UCCG: 0.909 fold
GUGG: 1.15 fold
CCAG: 0.972 fold
UGCC: 0.851 fold
CACU: 0.851 fold

Series 4
Target: CCNE1, cyclin fold, Cln2 fusion (human)
Method: yeast growth competition, sequencing
Matrix: yeast
Notes: strong parent motif
Baseline: not given
Reading: higher = stronger binding
Quantity: normalised enrichment score
Starting sequence: viral docking peptide; YKVKRRLVFGADD; partner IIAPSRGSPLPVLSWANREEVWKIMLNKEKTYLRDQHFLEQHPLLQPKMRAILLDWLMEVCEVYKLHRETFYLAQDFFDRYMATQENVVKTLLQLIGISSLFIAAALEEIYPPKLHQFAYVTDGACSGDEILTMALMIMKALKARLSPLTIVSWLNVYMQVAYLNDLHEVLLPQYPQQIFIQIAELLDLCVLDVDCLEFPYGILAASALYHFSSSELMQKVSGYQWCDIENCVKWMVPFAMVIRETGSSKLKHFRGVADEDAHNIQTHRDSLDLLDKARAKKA
V3Q: 0.638
V8K: 5.43
R6M: 3.73
A11D: 6.58
V3F: 3.68
K4W: 1.04
R5H: 0.28
F9V: 0.445
L7D: 0.339
A11P: 6.59
D12F: 4.96
V3G: 1.95
R5F: 0.293
A11V: 5.95
R5V: 0.483
G10E: 6.23
G10Q: 5.36

A few entries again (series 4):
F9V: 0.445
R6M: 3.73
V8K: 5.43
G10Q: 5.36
V3F: 3.68
